Assay results collected from several papers.
A part holds a random share of what one study measured. Substitutions count along the parent as printed.

Block 1
Target: CCNB3, cyclin fold, Cln2 fusion (human)
Technique: yeast growth competition, sequencing
Sample: yeast
Notes: weak parent motif
Relative to: not given
Direction: higher = stronger binding
Endpoint: normalised enrichment score
Parent: SLBP docking peptide (human); ARYKRKLLINDFG; partner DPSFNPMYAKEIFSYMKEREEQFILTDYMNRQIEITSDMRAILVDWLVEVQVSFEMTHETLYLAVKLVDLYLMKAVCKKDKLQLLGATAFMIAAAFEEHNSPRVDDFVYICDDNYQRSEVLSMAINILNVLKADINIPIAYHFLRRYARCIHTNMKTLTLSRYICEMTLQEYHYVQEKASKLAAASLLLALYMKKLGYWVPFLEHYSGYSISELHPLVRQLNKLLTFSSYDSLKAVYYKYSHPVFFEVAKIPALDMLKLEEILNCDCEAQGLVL
ARYKRKLLINQFG [D11Q]: 0.0167
ARYWRKLLINDFG [K4W]: 1.03
ARYKRKLLIRDFG [N10R]: 0.00458
ARYKRKLLINAFG [D11A]: 0.456
ARYKRKCLINDFG [L7C]: 0.177
ARYKRKLMINDFG [L8M]: 0.54
ARYKIKLLINDFG [R5I]: 0.0096
ARYFRKLLINDFG [K4F]: 0.47
ARYKNKLLINDFG [R5N]: 0.12

Block 2
Target: Centromere-binding protein 1, full length, His-tagged (CBF1, Saccharomyces cerevisiae, UniProt P17106, residues 1-351)
Chain of UniProt P17106 (whole entry, looked up): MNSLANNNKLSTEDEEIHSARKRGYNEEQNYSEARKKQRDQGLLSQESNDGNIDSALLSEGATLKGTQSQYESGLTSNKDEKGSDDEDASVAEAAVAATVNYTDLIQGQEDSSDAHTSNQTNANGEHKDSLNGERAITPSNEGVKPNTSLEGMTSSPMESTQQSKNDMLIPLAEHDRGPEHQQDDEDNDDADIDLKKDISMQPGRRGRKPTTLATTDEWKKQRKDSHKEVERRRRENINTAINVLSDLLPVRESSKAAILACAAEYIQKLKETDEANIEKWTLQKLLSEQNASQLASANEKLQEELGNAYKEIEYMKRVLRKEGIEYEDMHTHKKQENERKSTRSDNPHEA
Technique: competition protein-binding microarray
Form: double-stranded DNA, one strand shown
Sample: in vitro
Concentration: 2 µM
Notes: whole 60-bp probe, lowest competitor level
Added: Pho4 competitor, 0.05 µM
Direction: higher = stronger binding
Endpoint: fluorescence intensity
Shared flanks, not repeated: … GTCTTGATTCGCTTGACGCTGCTG
AAATATTAGGGACAGTGCGTGCCGACCCATAAGTTG: 74.5 a.u.
CATTTAAAGCTAATGAAATGTACCTCTCGCTTCATT: 78.7 a.u.
TGCGCAACAACTTGTCAGGTGGGTGTATGTCTAGAA: 171 a.u.
AAATTACTAAGTTTTCACGTGGGCTACCCCGTATGA: 762 a.u.
GTCTTGTCTCATTGTTCCGTGGGTGTCCCCACTTCA: 84.9 a.u.
TTCTTTATCTGATGATTCGTGATGGTCTAAATCTGC: 83.3 a.u.
CTTTCCCGATCTTTTCACGTGGATTTAGCACATTTG: 661 a.u.
AAAGCGGTAATTTGTCACTGAACTTCACATATCTAT: 89.8 a.u.
TCAAACTGAGATCCGGTCATGACAATACTGTCAACA: 77.6 a.u.
AAAGCGGTAATTTGGGAGGTGGGTGCAGATATCTAT: 75.8 a.u.
TTCCAACTGTTTTTGCACGCAAATTCGTCCAACCGG: 72.4 a.u.
GGAAACTCTGGCGGCCACGTGAATTCAAATTACAAC: 1340 a.u.
CATACCCAACCTTGTACGGTGGGTGAAGATATTTGT: 60.8 a.u.
TTCTTTGGTGATTCTGGCGTGATGGAACATTCGTAT: 89.6 a.u.
TCTCGTAAAATCCTGCGCATGTTAAATAGCCGCCGA: 80.3 a.u.

Block 3
Target: Histone acetyltransferase KAT6A, both winged helices, GST fusion (KAT6A, Homo sapiens, UniProt Q92794, residues 1-181)
Technique: protein binding microarray
Form: double-stranded DNA, one strand shown
Sample: in vitro
Concentration: not given
Notes: 8-mer, flanks averaged, mean of 2 arrays, mostly near background
Relative to: not given
Direction: higher = stronger binding
Endpoint: E-score
Construct (chain): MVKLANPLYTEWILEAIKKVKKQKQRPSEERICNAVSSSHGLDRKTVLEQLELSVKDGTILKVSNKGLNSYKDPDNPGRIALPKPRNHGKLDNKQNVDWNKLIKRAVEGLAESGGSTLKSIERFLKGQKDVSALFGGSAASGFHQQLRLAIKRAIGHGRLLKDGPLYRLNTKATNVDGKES
AGTGGTTC: -0.018
TAACATTA: -0.114
CGGCTCAG: 0.193
GCTTAATA: -0.0206
TAACGCCA: 0.0518
ATCCGCCG: 0.285
GACCAACA: -0.0919
CCACTTAC: -0.0331
ATAAGTAT: -0.0765
CCCACTTA: -0.12
ATCAGCTA: -0.154
AAGTCAAG: -0.0903
GCGTCATA: 0.0915

Mixed results
PhoQ, residues 284 288 289 292 302 303 HSYLQF
fold induction (PhoP, residues 12 14 15 18 19 LWHSL (Escherichia coli, UniProt P23836); Sort-seq, refers to: YFP reporter; E. coli; PhoQ-PhoP variant library, added: 10 µM Mg2+; relative to: high Mg2+ state, higher = stronger signaling): 43.1

Some of these lines once more (block 3):
CGGCTCAG: 0.193
GCTTAATA: -0.0206
TAACGCCA: 0.0518
ATCCGCCG: 0.285
